Measured values collected from several papers.
Every numbered part comes from another study and shows a few of its results, in no order.

Block 1 — method: RNA Bind-n-Seq; molecule type: RNA; sample: in vitro; tested at: not given; notes: RNA with constant flanks, ends assumed; reference: input RNA pool; reading: higher = stronger binding; measurement: bound/input enrichment
Target: RING finger protein unkempt homolog, zinc fingers 1-6, GST-SBP tag (UNK, Homo sapiens, UniProt Q9C0B0, residues 30-357)
Target sequence (chain): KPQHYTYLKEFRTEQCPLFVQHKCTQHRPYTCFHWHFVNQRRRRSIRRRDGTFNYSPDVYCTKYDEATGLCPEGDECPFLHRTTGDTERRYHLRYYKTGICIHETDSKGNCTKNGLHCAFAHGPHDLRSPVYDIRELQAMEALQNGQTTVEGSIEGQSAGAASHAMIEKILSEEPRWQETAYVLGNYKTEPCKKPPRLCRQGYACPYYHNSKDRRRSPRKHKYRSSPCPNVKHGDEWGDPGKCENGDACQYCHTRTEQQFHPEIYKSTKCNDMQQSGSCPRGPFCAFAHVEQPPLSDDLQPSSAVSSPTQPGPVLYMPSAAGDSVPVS
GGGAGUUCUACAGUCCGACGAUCUGCUGUAGGUUAUUUUAUAAAGAUGCCAAAGGAAACAAGUUUUUCUUUAUUUAUUUUAAGCCGCUAAAACUUUGUACUGUUCUUUAUAUUCUCAGAUAAGAAGGAAAUGUGUGAAAUAACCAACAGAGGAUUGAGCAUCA: 0.392 ratio
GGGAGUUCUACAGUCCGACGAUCGCAGGGCUUUACUUUACACUCUCCUUUUUAUCCUUGUAUUUUUCUAAAGGUAACUGAUUGCUCCGAUGCUGAGUAAGGAAGAUACAUUGUUGUCAUUGUUUGGCUUUGGUAGAAUGAAACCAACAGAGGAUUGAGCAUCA: 0.197 ratio
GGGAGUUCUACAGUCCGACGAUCAGUUUUGUCUGAGAUGCACCUUGCAUGGUACGUGUGUGAGAGGUUGUGCAAGUUCUGAGACUCCGACAAUUCAGAAGUCACCCUUCUGAGGGAACAGUUCCCAAAAUGGAGCAAUAAAGGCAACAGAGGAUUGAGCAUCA: 0.166 ratio
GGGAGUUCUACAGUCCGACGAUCCCAGGACACUGCCUUAUGUUUGAUCAUCGGCCAAGGUCCUGGCGAGAACUGCCUCUGCGGCCCGCUGAUUUUGGGGUACUUCAUAGGAACGAGCUGUCUGGAGCACUCACAGGACUCACCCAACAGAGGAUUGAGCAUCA: 0.124 ratio
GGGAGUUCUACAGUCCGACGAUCAAUUUUCUUACUGGCCAGAGUUCUUGGUGGAGAAGUUGCAUAUGGCCAAGUCCUUGGAGUUACCGGAUAUUCAUUACUUCCUCUCAUUGUAAUAGCCCCUGUACUUUUGGUGGUUGGAUCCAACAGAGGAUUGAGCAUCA: 0.54 ratio
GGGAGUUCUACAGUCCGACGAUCCAGCUUUCAUUACCCCUGAACUUUCUGGGAACUGUAUAUAGAGAGACUAGACAAGCACUCACCGAUAUGAACACCUUGUUUACUCUACUCAAGGUAGACACCCAAAUUAAAGACAAAGUGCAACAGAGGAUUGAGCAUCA: 0.243 ratio
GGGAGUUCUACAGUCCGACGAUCACAAGUAUUUUAAUUUAAGUUCAGUGAACUUUUUUGUAGCUGGGUUAAAUCUUUUUAUUUCCGUAUGGCCUUAUGGCAAAGAACACUGUAUUAUUUUAAUAAUCACACAAUUGUGACGGACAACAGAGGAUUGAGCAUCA: 0.654 ratio
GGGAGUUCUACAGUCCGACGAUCAGGUUUCCGGUUCCGGUGUAACGUUCGGGCUCCGUCUCAGGGGCUGAAGUUUGUGAGGUGCCGUUUUUUUGUCCCAUUGGAGCUCUCAUUCUCCAUUUUCUCCGAAAUGGCGCUGUCUAACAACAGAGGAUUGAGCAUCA: 0.079 ratio
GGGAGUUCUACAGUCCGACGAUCAUACCUCCAGAGAGCAGACUGUAUACUAUGCCAAAGCAUUCUCUAAAGACUUGCCAAGAGCUGCCGAAAUUCUUGCUGAUAUAAUACAAAACAGCACAUUGGGAGAAGCAGAGAUUGAACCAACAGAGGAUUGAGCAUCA: 0.178 ratio
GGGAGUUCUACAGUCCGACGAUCUUCUACGUGAAUAGGAUUUUGUGGCUGGCCAGAUACACUGCAUCAUCUUUUUCAUCAUUUUCCGUUCAACUUUUUCAAGUGGUUUUAAUGAAGCUCAGUUAUGAAUCAGAAAAUUACAAACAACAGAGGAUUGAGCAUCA: 0.327 ratio
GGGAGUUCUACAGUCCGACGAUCUUUGACAAGGAUGGCAAUGGUUAUAUCAGUGCAGCAGAACUACGUCACGUCAUGACAAACUCCGGAGAAAAACUAACAGAUGAAGAAGUAGAUGAAAUGAUCAGAGAAGCAGAUAUUGAUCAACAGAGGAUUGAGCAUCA: 0.642 ratio

Block 2 — method: RNA Bind-n-Seq; molecule type: RNA; sample: in vitro; tested at: 365 nM; reference: no-protein control; reading: higher = stronger binding; measurement: RBNS enrichment (R)
Target: RNA binding protein fox-1 homolog 2, RRM domain, GST-SBP tag (RBFOX2, Homo sapiens, UniProt O43251-10, residues 100-194)
Notes: natural RNA segment, single round, ends assumed
Residues (chain): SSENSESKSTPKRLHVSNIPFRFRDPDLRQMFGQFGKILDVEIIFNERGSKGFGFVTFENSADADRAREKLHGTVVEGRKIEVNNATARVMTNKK
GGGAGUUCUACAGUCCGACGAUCGGAGGGAGAACGCUAUAUUGGGUUCACAGUUACAUGGUGAUCAAAGAGAACUUCUCAGUCUCCAGGAAGAUAGCAUCUUUUCAUGAGUGUUUGAAUGAAAACAACACGAAUGGAAUUCUCGGGUGCCAA: 5.08
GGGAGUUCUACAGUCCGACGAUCUCAGGUACAAUUUUUGUGUAAUAAAAGCCAGUGCAUUAAGUUUAUAUAGACUACUUUCUAUGCAAGACUGAGAUAUGGAAUAGAUAGGAAGAGAUAUGUACUGCUGGGUAUGGAAUUCUCGGGUGCCAA: 0.446
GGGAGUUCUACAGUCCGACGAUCUCGUAGAGAGAAUCAAGGCUACCAUGUGUUUUCUCAUGAGUCAGAAGAUGGCUCAGGAAGCCACUGUCACGGUUCCUGGAGGCUGGGCCCUCUCAUUGACAUGUACACUAUGGAAUUCUCGGGUGCCAA: 0.502
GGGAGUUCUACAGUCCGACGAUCAGUGAGCUUCCCUGUGCCCACUCAGUGAACUAAGUCUGACCAUCCUUCAGGGACGUUCCUUUUGGUAAAUAUACACUGUAAUCUUUAAGUCUAAAUUUAUAUGUGAAAGUUGGAAUUCUCGGGUGCCAA: 0.358
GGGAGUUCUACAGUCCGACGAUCAGACAGACUUCCGGAGCAGUGUCUAGGACAGUCACCACCUUGUAAAUGUUUACUUUGUUCCCUGUCUAUAUAUGCCUUUUGAAAAAUAAACUUGUACCUCAAACUCAAACUGGAAUUCUCGGGUGCCAA: 0.487
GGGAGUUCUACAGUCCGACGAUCUCCUCCAACUCCAAAACCCAAAGUGUCCGUGCUGUGUCCCUGUGCUUCACUGGGUUUCUCAACCGUGGCUUUUCACCGCAGCUUGUCUGAAACUCUUAGCCUGCAGAAUUUGGAAUUCUCGGGUGCCAA: 0.873
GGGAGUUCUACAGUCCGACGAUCGGCUGUACCCUGCAAUGCCAUAGGGGUGGAGCUGCCCAAGACCAUGGGAACCCACCUCCUGCAUCAGUGUGACCUGGAUGUGAGACAUGGAGUCAAAGGAGACCAUUUUGUGGAAUUCUCGGGUGCCAA: 0.439
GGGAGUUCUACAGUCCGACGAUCGCUGGGUGUCCCGGGUCGCGGGGAGGCAGCUCAGCUCUUAGGAGCAAGUUGUGGGGGCUUUUCAAGAGGGGCCAGGCUUCCUGGAGGGUGACUGAUGUGGCCGAAGCAGGUGGAAUUCUCGGGUGCCAA: 0.618
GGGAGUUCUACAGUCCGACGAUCAUCCACCACAGGGUUAGGGGACAGGAAGCCUGUUCUAUUCUCAAUAAAUCUUACAAAAUUCCAAAAAGACUUUCCUGUGUCCCUCUGUCCCCCUGGGGGGAAGGGACAAUUGGAAUUCUCGGGUGCCAA: 0.6

Block 3 — method: universal PBM; molecule type: double-stranded DNA, one strand shown; sample: in vitro; tested at: 600 nM; reading: higher = stronger binding; measurement: E-score
Target: Sal-like protein 4, full length isoform A (SALL4, Homo sapiens, UniProt Q9UJQ4, residues 1-1053)
Chain of UniProt Q9UJQ4 (whole entry, looked up): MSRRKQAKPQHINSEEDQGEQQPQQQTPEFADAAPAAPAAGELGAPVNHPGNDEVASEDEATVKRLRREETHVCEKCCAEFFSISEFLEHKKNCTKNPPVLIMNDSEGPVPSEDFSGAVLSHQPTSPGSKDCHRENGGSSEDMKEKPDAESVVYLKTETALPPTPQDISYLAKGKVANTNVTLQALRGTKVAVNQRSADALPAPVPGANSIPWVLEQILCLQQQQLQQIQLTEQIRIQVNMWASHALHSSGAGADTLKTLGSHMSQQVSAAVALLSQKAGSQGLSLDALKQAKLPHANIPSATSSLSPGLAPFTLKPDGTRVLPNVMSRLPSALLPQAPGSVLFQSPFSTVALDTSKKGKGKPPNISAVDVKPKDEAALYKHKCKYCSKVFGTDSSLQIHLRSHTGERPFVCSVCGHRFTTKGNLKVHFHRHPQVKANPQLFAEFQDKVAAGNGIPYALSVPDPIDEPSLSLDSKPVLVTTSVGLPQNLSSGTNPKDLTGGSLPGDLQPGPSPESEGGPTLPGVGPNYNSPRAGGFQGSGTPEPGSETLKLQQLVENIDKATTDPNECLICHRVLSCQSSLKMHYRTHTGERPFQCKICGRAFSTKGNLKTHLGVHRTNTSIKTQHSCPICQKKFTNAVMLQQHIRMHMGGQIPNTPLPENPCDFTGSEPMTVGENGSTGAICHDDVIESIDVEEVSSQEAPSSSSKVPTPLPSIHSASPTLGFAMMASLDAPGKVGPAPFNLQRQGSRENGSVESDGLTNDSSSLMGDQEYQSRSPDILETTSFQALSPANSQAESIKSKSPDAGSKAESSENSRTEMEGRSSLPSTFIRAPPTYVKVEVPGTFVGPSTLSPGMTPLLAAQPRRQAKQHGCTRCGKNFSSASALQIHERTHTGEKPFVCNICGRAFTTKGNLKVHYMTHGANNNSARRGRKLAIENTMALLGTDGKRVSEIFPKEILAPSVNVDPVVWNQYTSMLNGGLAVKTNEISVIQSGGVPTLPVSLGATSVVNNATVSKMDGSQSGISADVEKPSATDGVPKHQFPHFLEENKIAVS
Notes: 8-mer, flanks averaged, mean of replicates
CCCCACAC: -0.119
AACTGGTC: -0.0798
GGCGGTAC: -0.162
CGATCAGA: -0.043
CCATTTGC: 0.0697
ACTCGGTG: -0.209
CCAATTAG: 0.142
CGGCTACC: -0.271
TATAAAAA: 0.383
GAGTTGGC: -0.197
GAGGTTGA: 0.061
GACGTGGA: -0.131
ACTAAAGA: 0.136
GAGTGAAC: -0.0791
AGGCTCCG: -0.232
ATTTGCTA: 0.19
GGAACAAC: -0.0648
ACGCACCC: -0.301
GGTCCGTA: -0.207
GACGAAGC: -0.0844
ACCCGGGT: -0.284
CGGCATCA: -0.0931
GCAGGAAA: -0.0334
ACGTTCCG: -0.251
CAGTTCCC: -0.294

Block 4 — method: competition protein-binding microarray; molecule type: double-stranded DNA, one strand shown; sample: in vitro; tested at: 2 µM; added: Pho4 competitor, 0.05 µM; reading: higher = stronger binding; measurement: fluorescence intensity
Target: Centromere-binding protein 1, full length, His-tagged (CBF1, Saccharomyces cerevisiae, UniProt P17106, residues 1-351)
Chain of UniProt P17106 (whole entry, looked up): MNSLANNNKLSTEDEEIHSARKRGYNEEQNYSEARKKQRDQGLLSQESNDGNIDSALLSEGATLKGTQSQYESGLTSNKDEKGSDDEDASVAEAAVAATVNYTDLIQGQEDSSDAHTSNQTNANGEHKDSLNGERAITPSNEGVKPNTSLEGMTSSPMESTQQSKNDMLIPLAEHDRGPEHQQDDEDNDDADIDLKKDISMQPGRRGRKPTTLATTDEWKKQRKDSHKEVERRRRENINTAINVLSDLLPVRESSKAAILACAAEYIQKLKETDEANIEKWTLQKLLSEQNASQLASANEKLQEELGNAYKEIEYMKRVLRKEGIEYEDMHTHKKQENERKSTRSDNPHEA
Notes: whole 60-bp probe, lowest competitor level
CTTTCCCGATCTTGCTTAGTGGGTGTAGCACATTTGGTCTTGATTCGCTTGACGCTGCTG: 71.3 a.u.
TTGGTAGAGGCGGTTCTCGTGGTGAAGCCCCTGGTGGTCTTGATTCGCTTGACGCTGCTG: 50.1 a.u.
TTTGCCTGGCAATATAACGTGCGATAGGTATTCATCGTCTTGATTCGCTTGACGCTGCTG: 100 a.u.
TACGCCTGTACTACCCACGTTGCCCCAGAACGTCCCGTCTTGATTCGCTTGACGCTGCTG: 78.4 a.u.
CATACCCAACCTTTTCACGTGGCCTAAGATATTTGTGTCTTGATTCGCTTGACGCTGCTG: 1060 a.u.
CAGCGGATTCCCGAGCACATGGAGTCGCTGAACGGCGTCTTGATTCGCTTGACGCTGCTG: 63.5 a.u.
GAACAATATCCGAGTCACGTGAAATTTAGATAAGCAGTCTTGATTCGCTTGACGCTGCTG: 8370 a.u.
AAATTACTAAGTTGAGAAGTGGGTGACGCCGTATGAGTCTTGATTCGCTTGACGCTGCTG: 90.6 a.u.
GCGCTGTTCTGCGGATGCGTGACGGTATCCGCAAAGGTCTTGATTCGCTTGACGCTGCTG: 88.7 a.u.
CATACCCAACCTTGTCACAGTACTTAAGATATTTGTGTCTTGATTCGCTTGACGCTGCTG: 76.8 a.u.
CCATTTCTTCTTCGTCACACGTTAAGCTTGCCAGGAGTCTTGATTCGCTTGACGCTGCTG: 104 a.u.
GTAACCGGTCAAAGCCATGTGAGCCATGAATAAAGAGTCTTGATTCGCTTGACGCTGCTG: 148 a.u.
GCACCATTTGCCCATCACGTCCAACGGTAGTGGTCCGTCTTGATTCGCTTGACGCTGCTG: 70.5 a.u.
CTTTCCCGATCTTGTCGCGTGGGTGTAGCACATTTGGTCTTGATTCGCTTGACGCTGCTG: 94.5 a.u.
GAATCTCCGCATATACATGTGGTCGGCATCGTTGTCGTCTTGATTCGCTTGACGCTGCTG: 108 a.u.
CGCAGTCGCAACCAACATGTGACGGATGCGAGCGAAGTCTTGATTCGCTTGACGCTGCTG: 460 a.u.
CCAAACCGAGTTTGTCACGGCATATATACTCTGGCGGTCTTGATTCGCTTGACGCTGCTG: 70.3 a.u.
AAGTTGAGGCTGAAGCAGGTGATGCTGGAACAAAGAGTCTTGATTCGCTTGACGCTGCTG: 125 a.u.
